Assay results gathered from unrelated publications.
Lines come from different studies, so protocols differ. ± marks the error that the study gave.

Compound | assay | test system | conditions | half-life [h]
Cc1c(Cc2cc(Cl)cc(OC(C)C(=O)O)c2)c2ccc(C(=O)NC(C)c3ccc(C(C)(C)C)cc3)cc2n1CC1CC1 (centres unmarked) |  | mouse liver microsomes | 1 µM, added: microsomes 1 mg/mL | > 1
CC(C)(C)C12CC(CN3CCN(C(c4ccccc4)c4ccc(Cl)cc4)CC3)(C1)C2 (centres unmarked) | metabolic stability | human liver microsomes |  | ~3.25
O=C(Nc1cccc(C(=O)N2CCC(c3nc(-c4ccccc4)n[nH]3)CC2)c1)c1ccccc1 |  | CD-1 mouse liver microsomes | pH 7.4, added: NADPH | 0.29
Cc1c(Cc2ccc(F)c(OC(C)C(=O)O)c2)c2ccc(C(=O)NC(C)c3ccc(C(C)(C)C)cc3)cc2n1CC(C)C (centres unmarked) |  | mouse liver microsomes | 1 µM, added: microsomes 1 mg/mL | > 1
O=S(=O)(Cl)c1cc(C(F)(F)F)cc(C(F)(F)F)c1 | reactivity with N-α-acetyl-lysine, HPLC-MS |  | pH 10.2 | < 0.0167
Clc1ncccn1 |  |  | pH 7.4 | 439
Cc1c(Cc2ccc(OC(C)C(=O)O)cc2)c2ccc(C(=O)NC(C)c3ccc(C(C)(C)C)cc3)cc2n1C (mixture of isomers) |  | mouse liver microsomes | 1 µM, added: microsomes 1 mg/mL | > 1
O=Cc1cc(C(F)(F)F)cc(C(F)(F)F)c1 | reactivity with N-α-acetyl-lysine, HPLC-MS |  | pH 10.2 | > 24
N=C(N)NCCC[C@@H]1NC(=O)[C@H](CCCNC(=N)N)NC(=O)[C@@H](CCCNC(=N)N)NC(=O)[C@@H](CCCNC(=N)N)NC(=O)[C@@H](C(c2ccccc2)c2ccccc2)NC(=O)[C@H](Cc2c[nH]c3ccccc23)NC(=O)[C@@H](C(c2ccccc2)c2ccccc2)NC1=O | LC-MS | human plasma |  | ≥ 6
CC(=O)O[C@H]1C(=O)[C@@]2(C)[C@H]([C@H](OC(=O)c3ccccc3)[C@]3(O)C[C@H](OC(=O)[C@H](OCOP(=O)(O)O)[C@@H](NC(=O)c4ccccc4)c4ccccc4)C(C)=C1C3(C)C)[C@]1(OC(C)=O)CO[C@@H]1C[C@@H]2O |  | simulated gastric fluid | 10 µM, 2 h incubation, pH 1.2 | > 2
Brc1cccnc1 |  |  | pH 7.4 | 45.7
Cc1c(Cc2ccc(Cl)c(O[C@@H](C)C(=O)O)c2)c2ccc(C(=O)N[C@@H](C)c3ccc(C(C)(C)C)cc3)cc2n1C |  | human liver microsomes | 1 µM, added: microsomes 1 mg/mL | > 1
Cl.NCc1ccc2c(c1)CN(C1CCC(=O)NC1=O)C2=O (centres unmarked) |  | male Göttingen minipig, whole blood |  | 0.0583
Cc1onc(-c2ccccc2)c1-c1ccc(S(=O)(=O)Cl)cc1 | reactivity with N-α-acetyl-lysine, HPLC-MS |  | pH 10.2 | 0.4
Cc1c(Cc2cccc(OC(C)(C)C(=O)O)c2)c2ccc(C(=O)NCc3cccc(C(C)(C)C)c3)cc2n1CC1CCC1 |  | human liver microsomes | 1 µM, added: microsomes 1 mg/mL | 0.483
O=C(NC1CCC(F)(F)CC1)C(c1cncnc1)N(C(=O)C(F)Cl)c1ccc(OC(F)(F)F)cc1 (centres unmarked) |  | human liver microsomes | concentration not given, pH 7.4 | > 2.42
N=C(N)NCCC[C@H](NC(=O)[C@@H](CCCNC(=N)N)NC(=O)CS)C(=O)N[C@H](CCCNC(=N)N)C(=O)N[C@@H](CCCNC(=N)N)C(=O)N[C@@H](CS)C(=O)N[C@@H](Cc1ccc2ccccc2c1)C(=O)N[C@@H](Cc1csc2ccccc12)C(=O)N[C@H](Cc1ccc2ccccc2c1)C(=O)N[C@@H](CS)C(=O)NCCOCCOCC(=O)N[C@@H](CCCCNC(=O)c1ccc2c(c1)C(=O)OC21c2ccc3cc(O)ccc3c2Oc2c1ccc1cc(O)ccc21)C(N)=O | UPLC-MS | 25% human serum in PBS | 100 µM, proteolytic stability | 0.9
C=CC(=O)Nc1cccc(Cn2ncc3cnc(Nc4cnn(CCOC)c4)nc32)c1 |  | CD-1 mouse whole blood | 5 µM | 1.17
O=Cn1nnc2ccccc21 | chemical stability, HPLC-MS | borate buffered saline | pH 10.2, no N-acetyl-lysine | 150
COc1ccc(-c2nc(CC(=O)NC(c3nc4ccccc4[nH]3)C(C)C)cs2)cc1OC (centres unmarked) |  |  | oral, 25 mg/kg | 1.7 ± 0.4
O=Cc1cc(OCc2ccccc2)ccc1B(O)O | chemical stability, HPLC-MS | borate buffered saline | pH 10.2, no N-acetyl-lysine | 10.8
CC1(C)OCCc2cc(C(=O)N3CCC(c4nc(-c5ccccc5)n[nH]4)CC3)ccc21 |  | human liver microsomes | pH 7.4, added: NADPH | 0.08
N#Cc1cncs1 |  |  | pH 7.4 | 350
CC(C)C[C@H](NC(=O)[C@H](Cc1ccc(O)cc1)NC(=O)[C@H](CC(N)=O)NC(=O)[C@H](CO)NC(=O)[C@H](CCCNC(=N)N)NC(=O)[C@H](Cc1ccc(O)cc1)NC(=O)CNC(=O)[C@H](CCCNC(=N)N)NC(=O)[C@H](Cc1c[nH]cn1)NC(=O)[C@H](CO)NC(=O)[C@H](Cc1c[nH]cn1)NC(=O)[C@H](Cc1c[nH]cn1)NC(=O)[C@H](CCCCN)NC(=O)[C@H](CCC(=O)O)NC(=O)[C@H](Cc1c[nH]cn1)NC(=O)[C@H](Cc1ccccc1)NC(=O)[C@H](CCCCN)NC(=O)[C@H](CCCNC(=N)N)NC(=O)[C@H](CCCCN)NC(=O)[C@H](Cc1ccc(O)cc1)NC(=O)CNC(=O)[C@H](Cc1c[nH]cn1)NC(=O)[C@H](Cc1c[nH]cn1)NC(=O)[C@H](CCCNC(=N)N)NC(=O)[C@H](CCCCN)NC(=O)[C@H](C)NC(=O)[C@H](Cc1c[nH]cn1)NC(=O)[C@H](CO)NC(=O)[C@@H](N)CC(=O)O)C(=O)N[C@@H](Cc1ccc(O)cc1)C(=O)N[C@@H](CC(=O)O)C(=O)N[C@@H](CC(N)=O)C(=O)O |  | human parotid saliva | endogenous acidic PRPs | 7.2

Compound | assay | test system | conditions | half-life [h]
CCCC/C=C/C(=O)N[C@@H](Cc1cc(F)cc(F)c1)C(=O)N[C@@H]1C(=O)N2CCC[C@H]2C(=O)N2CCCC[C@H]2C(=O)N[C@@H](C)C(=O)N2CCC[C@H]2C(=O)O[C@H]1C | H-D exchange, 1H NMR, item: alanine amide hydrogen | CD3OD | 25 °C | 167
C/C(N)=N/C(=N\S(=O)(=O)c1ccc(C(F)(F)F)cc1)N1C[C@H](c2ccccc2)C(c2ccc(Cl)cc2)=N1 |  | rat liver cytosol |  | 1.95
CCN(CC)c1ccc2cc(C(=O)ON3C(=O)CCC3=O)c(=O)oc2c1 | chemical stability, HPLC-MS | borate buffered saline | pH 10.2, no N-acetyl-lysine | 0.1
C#Cc1cccnc1 |  |  | pH 7.4 | 50.7
CC(C)C[C@@H]1NC(=O)[C@H](C(C)C)NC(=O)[C@H](Cc2c[nH]c3ccccc23)NC(=O)[C@@H]2CSSC[C@H](NC(=O)[C@H](Cc3ccc(O)cc3)NC(=O)[C@H](C(C)C)NC(=O)[C@H](CCCNC(=N)N)NC(=O)CNC(=O)[C@H]3CCCN3C1=O)C(=O)N[C@@H](CCC(N)=O)C(=O)N1CCC[C@H]1C(=O)NCC(=O)N[C@@H](Cc1c[nH]c3ccccc13)C(=O)N2 |  | simulated gastric fluid | pH 1.6 | 5.2
CCCC/C=C/C(=O)N[C@@H](Cc1cc(F)cc(F)c1)C(=O)N[C@H]1COC(=O)[C@@H]2CCCN2C(=O)[C@H](C)NC(=O)[C@@H]2CCCCN2C(=O)[C@@H]2CCCN2C1=O | H-D exchange, 1H NMR, item: alanine amide hydrogen | CD3OD | 25 °C | 1.03
Cc1c(Cc2ccc(Cl)c(O[C@H](C)C(=O)O)c2)c2ccc(C(=O)N[C@@H](C)c3ccc(C(C)(C)C)cc3)cc2n1CC(C)C |  | human liver microsomes | 1 µM, added: microsomes 1 mg/mL | > 1
O=c1c(-c2cnn(-c3ccccc3)c2)c(C(F)(F)F)oc2c(O)c(O)ccc12 |  | mouse plasma |  | 3.85
CCOC(=O)[C@H](CCCNC(N)=O)NC(=O)[C@H](Cc1c[nH]c2ccccc12)NC(=O)[C@@H]1CCCCN1C(=O)[C@H](Cc1ccccc1)N(C)C(=O)CCl | MALDI MS | cell-free DMEM with FBS | 10 µM | > 72
CCn1c(C)c(Cc2ccc(Cl)c(O[C@H](C)C(=O)O)c2)c2ccc(C(=O)N[C@@H](C)c3ccc(C(C)(C)C)cc3)cc21 |  | human liver microsomes | 1 µM, added: microsomes 1 mg/mL | > 1
CN(C(=O)OCc1cc(C(=O)O)ccc1OP(=O)(O)O)C(=O)c1ccc(N2C(=S)N(c3ccc(C#N)c(C(F)(F)F)c3)C(=O)C2(C)C)cc1F |  | simulated gastric fluid | 10 µM, 2 h incubation, pH 1.2 | > 2
O=C(c1ccc(-c2ccccc2)cc1)N1CCCCC1 | metabolic stability | human liver microsomes | 2 µM, pH 7.4 | 2.32
O=C1CCC(N2C(=O)c3ccc(O)cc3C2=O)C(=O)N1 (centres unmarked) | D/H back-exchange, LC-HRMS | 0.1 M phosphate buffer in water | pH 7.4, 37 °C | 55
CCCCCCCCCCCCCC(=S)NCCCC[C@H](NS(C)(=O)=O)C(=O)N[C@@H](C)C(=O)N[C@@H](CCCNC(=N)N)C(N)=O |  | male human serum | 150 µM, 37 °C | 2.8 ± 0.3
O=C=Nc1cc(C(F)(F)F)cc(C(F)(F)F)c1 | reactivity with N-α-acetyl-lysine, HPLC-MS |  | pH 10.2 | < 0.0167
Brc1ncc[nH]1 |  |  | pH 7.4 | 150
CN(C)c1cccc2c(S(=O)(=O)NCCCCNC(=O)c3ccc(NNC(=O)OCc4ccc(O[Si](C)(C)C(C)(C)C)cc4)cc3)cccc12 |  | PBS | 37 °C, added: 2-formylphenylboronic acid | > 100
O=C(NC1CCC(F)(F)CC1)C(c1cncnc1)N(C(=O)C(F)Cl)c1ccc(-c2cncs2)cc1 (centres unmarked) |  | human liver microsomes | concentration not given, pH 7.4 | 0.782
O=C(O)c1ccc(OP(=O)(O)O)c(CN2CCC(=C3c4ccc(Cl)cc4CCc4cccnc43)CC2)c1 |  | simulated gastric fluid | 10 µM, 2 h incubation, pH 1.2 | > 2
Cc1c(Cc2ccc(Cl)c(OC(C)C(=O)O)c2)c2ccc(C(=O)NC(C)c3ccc(C(C)(C)C)cc3)cc2n1CC1CCC1 (centres unmarked) |  | human liver microsomes | 1 µM, added: microsomes 1 mg/mL | > 1
Brc1ncc(-c2ccccc2)o1 |  |  | pH 7.4 | 78.1
COc1ccc2c(c1)C(=O)C(=C[O-])C2.[Na+] | reactivity with N-α-acetyl-lysine, HPLC-MS |  | pH 10.2 | > 24
N=C(N)NCCC[C@@H]1NC(=O)[C@H](CO)NC(=O)[C@@H](NC(=O)[C@H](CO)NC(=O)[C@H](CO)NC(=O)[C@H](Cc2c[nH]c3ccccc23)NC(=O)CNC(=O)[C@H](CO)NC(=O)[C@@H](N)Cc2c[nH]c3ccccc23)CSSC[C@@H](C(=O)NCC(=O)O)NC(=O)[C@H](CO)NC1=O |  | patients, plasma | intravenous, 5 mg/kg, thrice weekly, mean | 0.299
